Experimental data gathered from unrelated publications.
Square brackets hold non-standard residues; d marks the D form. Ends that are not written are not given here.
B1: Lair1/IgG1 Fc Fc fusion, extracellular domain 22-144 (Mus musculus); sequence looked up; chain QEGSLPDITIFPNSSLMISQGTFVTVVCSYSDKHDLYNMVRLEKDGSTFMEKSTEPYKTEDEFEIGPVNETITGHYSCIYSKGITWSERSKTLELKVIKENVIQTPAPGPTSDTSWLKTYSIY
B2: Il22 34-179 E43H/S45R/Q49S/N68Q/N97Q/Q116W/Q128K (Mus musculus, UniProt Q9JJY9); sequence looked up; chain LPVNTRCKLHVRNFQSPYIVNRTFMLAKEASLADQNTDVRLIGEKLFRGVSAKDQCYLMKQVLQFTLEDVLLPQSDRFQPYMWEVVPFLTKLSNKLSSCHISGDDQNIQKNVRRLKETVKKLGESGEIKAIGELDLLFMSLRNACV
B3: ACAT1 (Homo sapiens, UniProt P24752); sequence looked up; chain VSKPTLKEVVIVSATRTPIGSFLGSLSLLPATKLGSIAIQGAIEKAGIPKEEVKEAYMGNVLQGGEGQAPTRQAVLGAGLPISTPCTTINKVCASGMKAIMMASQSLMCGHQDVMVAGGMESMSNVPYVMNRGSTPYGGVKLEDLIVKDGLTDVYNKIHMGSCAENTAKKLNIARNEQDAYAINSYTRSKAAWEAGKFGNEVIPVTVTVKGQPDVVVKEDEEYKRVDFSKVPKLKTVFQKENGTVTAANASTLNDGAAALVLMTADAAKRLNVTPLARIVAFADAAVEPIDFPIAPVYAASMVLKDVGLKKEDIAMWEVNEAFSLVVLANIKMLEIDPQKVNINGGAVSLGHPIGMSGARIVGHLTHALKQGEYGLASICNGGGGASAMLIQKL
B4: TIF4631 572-853 K590R (Saccharomyces cerevisiae, UniProt P39935); sequence looked up; chain LVPSANRWVPKFKSKKTERKLAPDGKTELLDKDEVERKMKSLLNKLTLEMFDAISSEILAIANISVWETNGETLKAVIEQIFLKACDEPHWSSMYAQLCGKVVKELNPDITDETNEGKTGPKLVLHYLVARCHAEFDKGWTDKLPTNEDGTPLEPEMMSEEYYAAASAKRRGLGLVRFIGFLYRLNLLTGKMMFECFRRLMKDLTDSPSEETLESVVELLNTVGEQFETDSFRTGQATLEGSQLLDSLFGILDNIIQTAKISSRIKFKLIDIKELRHDKNWN
B5: CITED2/HIF1A 216-246/796-826 (Homo sapiens); chain GSHMSNVIDTDFIDEEVLMSLVIEMGLDRIKELPELTSYDCEVNAPIQGSRNLLQGEELLRALDQVN
B6: MMADHC 116-296 (Homo sapiens, UniProt Q9H3L0); sequence looked up; chain MAQYVNEFQGNDAPVEQEINSAETYFESARVECAIQTCPELLRKDFESLFPEVANGKLMILTVTQKTKNDMTVWSEEVEIEREVLLEKFINGAKEICYALRAEGYWADFIDPSSGLAFFGPYTNNTLFETDERYRHLGFSVDDLGCCKVIRHSLWGTHVVVGSIFTNATPDSHIMKKLSGN
B7: PUM2 471-704 (Homo sapiens, UniProt Q8TB72); sequence looked up; chain ISSAAAQAAAAAAAGGTASSLTGSTNGLFRPIGTQPPQQQQQQPSTNLQSNSFYGSSSLTNSSQSSSLFSHGPGQPGSTSLGFGSGNSLGAAIGSALSGFGSSVGSSASSSATRRESLSTSSDLYKRSSSSLAPIGQPFYNSLGFSSSPSPIGMPLPSQTPGHSLTPPPSLSSHGSSSSLHLGGLTNGSGRYISAAPGAEAKYRSASSTSSLFSSSSQLFPPSRLRYNRSDIMP
B8: ETV6 48-121 V112E/R80S (Homo sapiens, UniProt P41212); sequence looked up; chain IRLPAHLRLQPIYWSRDDVAQWLKWAENEFSLSPIDSNTFEMNGKALLLLTKEDFRYRSPHSGDELYELLQHIL
B9: rI 25-97 (T4 phage, UniProt P13304); selenomethionine; sequence looked up; chain NVDPHFDKFMESGIRHVYMLFENKSVESSEQFYSFMRTTYKNDPCSSDFECIERGAEMAQSYARIMNIKLETE
Chain of UniProt P10081 (whole entry, unmodified, looked up): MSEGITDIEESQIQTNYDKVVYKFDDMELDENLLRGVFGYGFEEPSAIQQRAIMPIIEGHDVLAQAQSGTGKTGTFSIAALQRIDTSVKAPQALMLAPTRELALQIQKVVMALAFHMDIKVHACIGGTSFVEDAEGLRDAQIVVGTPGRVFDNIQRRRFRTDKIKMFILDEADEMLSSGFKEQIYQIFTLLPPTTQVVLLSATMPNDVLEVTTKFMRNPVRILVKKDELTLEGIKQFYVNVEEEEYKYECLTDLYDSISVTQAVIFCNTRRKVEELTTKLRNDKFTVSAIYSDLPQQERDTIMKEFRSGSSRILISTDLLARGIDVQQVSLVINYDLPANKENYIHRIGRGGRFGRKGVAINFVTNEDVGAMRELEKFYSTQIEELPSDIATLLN
Chain of UniProt P02461 (whole entry, looked up): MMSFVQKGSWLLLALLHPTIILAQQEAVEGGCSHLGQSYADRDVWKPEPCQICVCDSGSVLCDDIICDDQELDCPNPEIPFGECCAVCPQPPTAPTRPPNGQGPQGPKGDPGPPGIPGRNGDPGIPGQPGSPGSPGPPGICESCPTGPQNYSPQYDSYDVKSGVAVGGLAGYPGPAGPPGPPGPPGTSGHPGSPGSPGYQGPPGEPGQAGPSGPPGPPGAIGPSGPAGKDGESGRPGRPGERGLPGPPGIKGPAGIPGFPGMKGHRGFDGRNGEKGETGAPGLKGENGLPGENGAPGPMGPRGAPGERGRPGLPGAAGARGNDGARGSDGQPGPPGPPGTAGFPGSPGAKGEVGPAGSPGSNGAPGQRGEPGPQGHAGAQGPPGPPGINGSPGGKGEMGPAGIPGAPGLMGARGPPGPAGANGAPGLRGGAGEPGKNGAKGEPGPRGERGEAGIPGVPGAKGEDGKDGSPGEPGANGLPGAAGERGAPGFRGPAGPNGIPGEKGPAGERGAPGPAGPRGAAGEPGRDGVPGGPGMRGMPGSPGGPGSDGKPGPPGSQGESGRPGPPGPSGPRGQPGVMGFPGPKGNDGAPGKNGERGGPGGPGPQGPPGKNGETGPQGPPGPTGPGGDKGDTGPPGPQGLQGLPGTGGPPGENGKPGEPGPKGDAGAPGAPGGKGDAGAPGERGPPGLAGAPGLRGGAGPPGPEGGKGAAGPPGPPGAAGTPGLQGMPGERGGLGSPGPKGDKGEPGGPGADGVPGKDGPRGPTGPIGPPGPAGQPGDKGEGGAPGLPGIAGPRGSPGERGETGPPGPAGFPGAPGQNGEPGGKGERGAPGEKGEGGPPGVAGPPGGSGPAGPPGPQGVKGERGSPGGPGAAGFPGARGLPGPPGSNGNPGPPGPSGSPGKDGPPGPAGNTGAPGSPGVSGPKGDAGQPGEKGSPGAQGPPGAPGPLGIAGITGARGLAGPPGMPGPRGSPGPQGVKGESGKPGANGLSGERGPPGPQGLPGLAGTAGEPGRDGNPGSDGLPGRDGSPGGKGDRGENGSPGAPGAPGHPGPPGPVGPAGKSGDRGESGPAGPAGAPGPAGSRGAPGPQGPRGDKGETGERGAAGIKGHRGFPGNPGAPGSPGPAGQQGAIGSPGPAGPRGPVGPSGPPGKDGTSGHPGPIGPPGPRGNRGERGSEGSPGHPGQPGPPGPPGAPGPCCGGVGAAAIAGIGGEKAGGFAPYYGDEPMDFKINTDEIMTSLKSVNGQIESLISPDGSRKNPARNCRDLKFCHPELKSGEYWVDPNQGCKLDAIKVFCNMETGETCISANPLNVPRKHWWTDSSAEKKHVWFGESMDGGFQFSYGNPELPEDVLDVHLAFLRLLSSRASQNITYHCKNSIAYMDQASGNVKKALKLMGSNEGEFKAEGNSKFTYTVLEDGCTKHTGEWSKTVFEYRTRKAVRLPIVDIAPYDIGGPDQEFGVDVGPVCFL
Chain of UniProt Q07955 (whole entry, looked up): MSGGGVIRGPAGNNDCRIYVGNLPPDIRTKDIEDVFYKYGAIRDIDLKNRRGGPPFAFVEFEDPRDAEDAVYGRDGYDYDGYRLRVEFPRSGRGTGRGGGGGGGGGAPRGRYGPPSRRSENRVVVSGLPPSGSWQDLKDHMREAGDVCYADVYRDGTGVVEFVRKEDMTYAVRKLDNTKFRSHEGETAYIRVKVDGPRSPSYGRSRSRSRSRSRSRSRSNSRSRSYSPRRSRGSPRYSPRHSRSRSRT
Chain of UniProt Q61190 (whole entry, unmodified, looked up): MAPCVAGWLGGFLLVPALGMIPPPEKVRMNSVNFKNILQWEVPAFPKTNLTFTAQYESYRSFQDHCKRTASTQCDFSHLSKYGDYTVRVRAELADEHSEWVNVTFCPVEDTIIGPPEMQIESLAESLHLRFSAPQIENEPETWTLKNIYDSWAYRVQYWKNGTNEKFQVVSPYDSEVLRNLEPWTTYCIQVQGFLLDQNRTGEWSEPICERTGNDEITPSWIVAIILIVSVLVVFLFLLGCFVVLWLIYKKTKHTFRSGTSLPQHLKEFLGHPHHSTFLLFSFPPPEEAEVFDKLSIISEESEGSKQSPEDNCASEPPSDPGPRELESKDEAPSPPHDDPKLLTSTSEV
Chain of UniProt P18688 (whole entry, looked up): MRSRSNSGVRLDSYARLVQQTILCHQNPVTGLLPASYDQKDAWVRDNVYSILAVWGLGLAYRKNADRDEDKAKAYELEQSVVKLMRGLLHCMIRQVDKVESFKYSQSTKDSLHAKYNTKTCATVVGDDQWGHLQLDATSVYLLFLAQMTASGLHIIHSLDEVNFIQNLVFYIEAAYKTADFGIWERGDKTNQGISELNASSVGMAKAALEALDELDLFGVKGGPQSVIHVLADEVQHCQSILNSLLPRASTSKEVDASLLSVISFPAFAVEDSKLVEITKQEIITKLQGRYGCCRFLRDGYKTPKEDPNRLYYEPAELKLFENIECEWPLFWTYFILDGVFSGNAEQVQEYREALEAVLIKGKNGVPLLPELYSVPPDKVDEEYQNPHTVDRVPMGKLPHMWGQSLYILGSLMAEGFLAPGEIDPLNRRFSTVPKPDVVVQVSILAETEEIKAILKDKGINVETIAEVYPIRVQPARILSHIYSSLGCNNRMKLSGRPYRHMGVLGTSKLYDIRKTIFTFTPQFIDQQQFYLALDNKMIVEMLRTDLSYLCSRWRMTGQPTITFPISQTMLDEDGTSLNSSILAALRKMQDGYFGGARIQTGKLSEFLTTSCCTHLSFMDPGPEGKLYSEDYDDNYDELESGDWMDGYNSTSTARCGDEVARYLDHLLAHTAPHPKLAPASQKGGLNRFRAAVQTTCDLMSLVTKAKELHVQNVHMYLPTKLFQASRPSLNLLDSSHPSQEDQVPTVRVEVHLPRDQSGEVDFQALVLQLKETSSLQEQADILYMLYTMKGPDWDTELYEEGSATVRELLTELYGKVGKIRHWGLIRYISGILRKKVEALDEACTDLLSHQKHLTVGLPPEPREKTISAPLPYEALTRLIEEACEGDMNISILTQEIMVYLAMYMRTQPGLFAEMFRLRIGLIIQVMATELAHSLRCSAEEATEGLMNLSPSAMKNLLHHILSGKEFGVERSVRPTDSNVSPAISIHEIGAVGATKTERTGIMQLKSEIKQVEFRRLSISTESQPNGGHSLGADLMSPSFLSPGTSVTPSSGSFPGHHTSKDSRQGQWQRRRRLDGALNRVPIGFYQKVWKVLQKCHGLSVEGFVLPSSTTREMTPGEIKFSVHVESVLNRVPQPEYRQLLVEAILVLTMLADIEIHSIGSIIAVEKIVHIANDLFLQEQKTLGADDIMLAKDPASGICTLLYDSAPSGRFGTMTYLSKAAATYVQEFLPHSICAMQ
Chain of UniProt P12798 (whole entry, looked up): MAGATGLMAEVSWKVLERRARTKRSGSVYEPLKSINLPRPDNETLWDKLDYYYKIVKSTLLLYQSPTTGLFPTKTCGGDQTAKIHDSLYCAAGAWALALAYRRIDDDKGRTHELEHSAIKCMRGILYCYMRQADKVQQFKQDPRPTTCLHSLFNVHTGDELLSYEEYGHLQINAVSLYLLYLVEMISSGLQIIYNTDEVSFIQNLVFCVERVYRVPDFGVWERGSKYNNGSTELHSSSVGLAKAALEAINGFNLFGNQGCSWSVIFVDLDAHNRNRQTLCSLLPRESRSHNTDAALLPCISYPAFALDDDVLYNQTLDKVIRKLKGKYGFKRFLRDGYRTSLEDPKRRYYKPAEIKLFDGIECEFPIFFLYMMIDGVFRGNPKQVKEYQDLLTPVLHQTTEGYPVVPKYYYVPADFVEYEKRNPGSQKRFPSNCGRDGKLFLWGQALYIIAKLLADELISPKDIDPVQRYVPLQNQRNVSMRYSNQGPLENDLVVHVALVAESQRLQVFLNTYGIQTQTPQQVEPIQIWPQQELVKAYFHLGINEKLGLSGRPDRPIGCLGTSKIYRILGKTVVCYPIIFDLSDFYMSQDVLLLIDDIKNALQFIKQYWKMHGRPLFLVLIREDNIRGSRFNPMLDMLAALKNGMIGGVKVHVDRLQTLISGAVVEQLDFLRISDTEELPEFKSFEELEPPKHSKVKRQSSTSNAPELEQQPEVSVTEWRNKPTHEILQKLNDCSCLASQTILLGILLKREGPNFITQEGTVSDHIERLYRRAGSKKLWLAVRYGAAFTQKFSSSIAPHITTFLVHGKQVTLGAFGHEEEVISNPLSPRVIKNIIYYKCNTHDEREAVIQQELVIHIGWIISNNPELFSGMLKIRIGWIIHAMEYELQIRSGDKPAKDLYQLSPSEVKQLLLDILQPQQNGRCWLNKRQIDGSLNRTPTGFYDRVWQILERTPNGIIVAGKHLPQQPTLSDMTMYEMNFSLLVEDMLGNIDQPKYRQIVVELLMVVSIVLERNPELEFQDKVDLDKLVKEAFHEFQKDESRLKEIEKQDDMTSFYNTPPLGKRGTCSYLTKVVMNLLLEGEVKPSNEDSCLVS

For `B1`, binding read “binds” (COL3A1, hydroxyproline (Homo sapiens, UniProt P02461); pull-down; Fc fusion).
For `B2`, binding read “binds” (Il10rb 20-220 N49Q/N102Q/N161Q/N199Q (Mus musculus, UniProt Q61190); crystal structure).
`B3 (ACAT1)`: binding “binds” (IDH2 R140Q, pY107 (Homo sapiens, UniProt P48735); co-IP).
`B4 (TIF4631 572-853 K590R)`: binding “binds” (TIF1 S87C/G370C, Alexa488/Alexa546 labels (Saccharomyces cerevisiae, UniProt P10081); conformation of molecule, smFRET).
Under binding, `B5 (CITED2/HIF1A 216-246/796-826)` is recorded as “binds” (Crebbp 340-439 (Mus musculus, UniProt P45481); crystal structure; peptide; NaCl 50 mM).
`NYVFFPSLKPSSSIDEYFSEQPLKNLLLSTSEEQIEKCFIIENISTIA (IFNAR1 465-512 (Homo sapiens, UniProt P17181))` — result for binding: “binds” (TYK2 23-566 (Homo sapiens, UniProt P29597); SEC; peptide).
`B6 (MMADHC 116-296)` — result for binding: “binds” (MTR 661-1265 (Homo sapiens, UniProt Q99707); native gel; 5 min, pH 8.3, 4 °C).
With `UGT1A9 (Homo sapiens, UniProt O60656)` the Vmax/Km was 1660 µL/min/mg (COc1ccc(-c2oc3cc(O)cc(O)c3c(=O)c2OC)cc1OCc1ccccc1; steady-state kinetics; pH 7.4, 37 °C).
`B7 (PUM2 471-704)` — result for binding: “binds” (CNOT1/CNOT2/CNOT3 NOT module 1833-2361 (Homo sapiens); pull-down).
For `PHKB (Oryctolagus cuniculus, UniProt P12798)`, binding read “binds” (PHKA1 (Oryctolagus cuniculus, UniProt P18688); cross-linking; 5 min, pH 6.8, 30 °C).
Under binding, `B8 (ETV6 48-121 V112E/R80S)` is recorded as “binds” (TNK1 UBA domain C610A/C644A (Homo sapiens); crystal structure).
`Ac-FTTVDFSSIS[pT]PHYEDIPFTRT (PPARG residues 65-86 (Homo sapiens); N-acetyl, pT75; pT = C[C@@H](OP(=O)(O)O)[C@H](N)C(=O)O)`: binding “binds” (PIN1 (Homo sapiens, UniProt Q13526); NMR; peptide).
For `SKDRKRHRSRDRRRGGSRSRSRSRSKSAERERRHKER (DDX23 41-77 (Homo sapiens, UniProt Q9BUQ8))`, binding read “binds” (SRSF1, RS domain phosphorylated (Homo sapiens, UniProt Q07955); pull-down).
Under binding, `BLM, hyperphosphorylated (Homo sapiens, UniProt P54132)` is recorded as “binds” (TOPBP1 (Homo sapiens, UniProt Q92547); pull-down).
`B9 (rI 25-97)`: binding “binds” (holin T periplasmic domain 56-218, Cys175-Cys207 disulfide (UniProt P06808); crystal structure).
Under binding, `MPIFLDHALNKFWILHYAGSGSSG (SPAM peptide I8A; peptide-RNA fusion)` is recorded as “binds” (CD274 ectodomain (Homo sapiens); radioligand binding; peptide; 1 h, 4 °C).
